Results gathered from unrelated publications.
Numbered parts are unrelated; each lists some results of a single study.

Series 1
Target: Histone acetyltransferase KAT6A, winged helix 2, GST fusion (KAT6A, Homo sapiens, UniProt Q92794, residues 85-181)
Method: protein binding microarray
Molecule type: double-stranded DNA, one strand shown
Matrix: in vitro
Concentration: not given
Notes: 8-mer, flanks averaged, mean of 2 arrays, mostly near background
Reference: not given
Direction: higher = stronger binding
Quantity: E-score
Residues (chain): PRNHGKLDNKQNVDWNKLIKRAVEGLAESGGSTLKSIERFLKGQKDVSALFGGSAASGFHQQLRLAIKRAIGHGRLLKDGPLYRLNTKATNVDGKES
AGAGGTAA: 0.0331
CCGGATGC: 0.169
GGGAGACA: 0.155
AGGTTCTA: -0.107
GACGCCAA: -0.097
CAGGGGAA: 0.0437
CAAGGTGG: 0.0505
GGTAAACA: -0.0264
TTCGCAAA: 0.194
CCTCCATA: 0.00647
CTGCTCCC: 0.0899

Series 2
Target: Interferon regulatory factor 7, full length, phosphomimetic (IRF7, Homo sapiens, UniProt Q92985, residues 1-503, S471D/S472D/S475D/S476D/S477D/S483D/S484D/S487D)
Method: protein-binding microarray
Molecule type: double-stranded DNA, one strand shown
Matrix: in vitro
Concentration: 2200 nM top
Notes: 60-bp whole probe
Added: salmon DNA 0.4 mg/ml
Reference: random background probes
Direction: higher = stronger binding
Quantity: fitted relative affinity
Constant ends, left off below: GCCTAGCAC … GTCTTGATTCGCTTGACGCTGCTG
Construct (chain): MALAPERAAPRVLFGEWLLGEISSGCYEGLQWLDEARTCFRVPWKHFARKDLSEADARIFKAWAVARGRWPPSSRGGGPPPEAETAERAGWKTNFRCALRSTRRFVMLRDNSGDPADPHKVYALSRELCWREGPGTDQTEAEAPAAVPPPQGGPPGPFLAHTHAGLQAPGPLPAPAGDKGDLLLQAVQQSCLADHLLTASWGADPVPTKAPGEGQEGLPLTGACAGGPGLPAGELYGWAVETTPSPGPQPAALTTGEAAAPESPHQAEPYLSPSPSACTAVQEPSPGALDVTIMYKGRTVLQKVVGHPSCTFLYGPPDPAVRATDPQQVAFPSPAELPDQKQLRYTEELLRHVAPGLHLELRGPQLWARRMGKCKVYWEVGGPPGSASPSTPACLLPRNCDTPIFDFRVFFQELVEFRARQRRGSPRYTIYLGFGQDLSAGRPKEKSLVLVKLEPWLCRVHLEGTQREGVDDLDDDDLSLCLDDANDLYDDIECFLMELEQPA
AAGGAAATCGGTGATCAGTCTGTGCTA: -0.433 z-score
TATAATTTTGTCATCTATAAGTGCTAG: 0.55 z-score
GACGATATCTGTATCGAGACGTGCTAG: 0.472 z-score
TCACAGCTATTTTTAGGACTGTGCTAG: 0.0305 z-score
TCATTTTTCATTTTTTTACTGTGCTAG: 3.39 z-score
GACGGTATCCTGCTGCTGACGTGCTAG: 0.618 z-score
GACGGTTTCCTTTCTCTGACGTGCTAG: 4.98 z-score
AAACCTCACAGTTTGTAAATGTGCTAG: 0.178 z-score

Series 3
Target: RING finger protein unkempt homolog, zinc fingers 1-6, GST-SBP tag (UNK, Homo sapiens, UniProt Q9C0B0, residues 30-357)
Sequence of UniProt Q9C0B0 (30-357, looked up): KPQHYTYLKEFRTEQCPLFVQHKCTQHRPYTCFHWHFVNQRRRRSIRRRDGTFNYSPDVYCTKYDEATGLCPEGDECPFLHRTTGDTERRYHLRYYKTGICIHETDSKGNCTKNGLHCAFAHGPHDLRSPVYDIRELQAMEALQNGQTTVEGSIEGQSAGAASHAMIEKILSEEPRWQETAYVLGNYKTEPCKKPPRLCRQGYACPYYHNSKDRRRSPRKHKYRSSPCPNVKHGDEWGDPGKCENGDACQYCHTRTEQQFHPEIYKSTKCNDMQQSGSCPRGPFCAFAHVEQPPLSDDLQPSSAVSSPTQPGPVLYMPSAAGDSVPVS
Method: RNA Bind-n-Seq
Molecule type: RNA
Matrix: in vitro
Concentration: not given
Notes: RNA with constant flanks, ends assumed
Reference: input RNA pool
Direction: higher = stronger binding
Quantity: bound/input enrichment
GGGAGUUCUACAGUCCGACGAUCGGGAGCAUUGGUGAAAUAGAAUCCUGCAAACUCGUGAGAGACAAAAUCACAGGACAGAGUUCCGGGUAUGGAUUUGUUAACUAUAUUGAUCCAAAGGAUGCAGAGAAAGCCAUCAACACUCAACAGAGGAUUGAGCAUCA: 0.236 ratio
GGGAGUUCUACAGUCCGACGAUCGCAGUCCGCAGAACGGAAACUGGACGCAUUGGAUUAGAAGGCUGCCUUUGUCAAGAUUUUUACCGGAUAAGAGACCUUUUAUAUGAACAAUAUGCCAUUGUAUAAAGGACAUGAUGUCAACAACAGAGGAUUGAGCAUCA: 0.13 ratio
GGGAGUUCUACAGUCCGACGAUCCUUCAGCUGGUGUUGGUCUGGCUGGGAGAGGUGCUGGGUGUCAUUGGGGACUCCCCAGAGCCCGUUCAGCGGUCCUUCCUUGUGGCUAGUGUUCUGCCAGGUCCCGAUGGCAACGUUAACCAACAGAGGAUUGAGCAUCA: 0.138 ratio
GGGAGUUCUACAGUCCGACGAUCUAUGCAGGUGCGUUGAGAGCUUCAGGAGAAAUGGCUUCAGCACAGUAUAUUACUGCAGCUCUCCGAGAUUUGUUUGAUUCCAUGGAUAAAACUUCUUCUAGUAUCCCACCUAUUAUUCUGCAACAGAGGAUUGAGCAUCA: 1.15 ratio
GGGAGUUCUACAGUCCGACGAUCGAAGAGAAUUAUGGUGUGGUGUCCACAUAUGAUAGCAGUUUAUCUUCAUAUACGGUUCCUUCCGAAAGGGACAACUCAGAAGAAUUUCUUAAACGGGAGGCAAGGGCAAACCAGUUAGCACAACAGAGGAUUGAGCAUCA: 0.924 ratio
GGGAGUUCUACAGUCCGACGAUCAAACGCCGUUUCAGGAAGUUCCUGGUUUAUGUUGCCAACUUUGAUGAAAAAGAUCCCCGAACUUUCGAGGGUGUUGAUCCUAAGAAGACCUCCAUGAGAGAUGUGUAUAAGAAGUUUGAUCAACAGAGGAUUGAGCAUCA: 0.199 ratio

Single results of other studies
PhoQ, residues 284 288 289 292 302 303 SNGLAW
fold induction (PhoP, residues 12 14 15 18 19 NYFRM (Escherichia coli, UniProt P23836); Sort-seq, item: YFP reporter; E. coli; PhoQ-PhoP variant library, added: 10 µM Mg2+; reference: high Mg2+ state, higher = stronger signaling): 20.9

A few entries again (series 1):
CAAGGTGG: 0.0505
GGTAAACA: -0.0264
TTCGCAAA: 0.194
CCTCCATA: 0.00647
